Experimental data collected from several papers.
A part holds a random share of what one study measured.

Series 1 — technique: protein-binding microarray; molecule type: double-stranded DNA, one strand shown; matrix: in vitro; tested at: 2540 nM top; setting: 60-bp whole probe; together with: salmon DNA 0.4 mg/ml; relative to: random background probes; direction: higher = stronger binding; endpoint: fitted relative affinity; all sequences stand within: GCCTAGCAC … GTCTTGATTCGCTTGACGCTGCTG
Target: Interferon regulatory factor 3, full length, phosphomimetic (IRF3, Homo sapiens, UniProt Q14653, residues 1-427, S386D/S396D/S398D/S402D/T404D/S405D)
Residues (chain): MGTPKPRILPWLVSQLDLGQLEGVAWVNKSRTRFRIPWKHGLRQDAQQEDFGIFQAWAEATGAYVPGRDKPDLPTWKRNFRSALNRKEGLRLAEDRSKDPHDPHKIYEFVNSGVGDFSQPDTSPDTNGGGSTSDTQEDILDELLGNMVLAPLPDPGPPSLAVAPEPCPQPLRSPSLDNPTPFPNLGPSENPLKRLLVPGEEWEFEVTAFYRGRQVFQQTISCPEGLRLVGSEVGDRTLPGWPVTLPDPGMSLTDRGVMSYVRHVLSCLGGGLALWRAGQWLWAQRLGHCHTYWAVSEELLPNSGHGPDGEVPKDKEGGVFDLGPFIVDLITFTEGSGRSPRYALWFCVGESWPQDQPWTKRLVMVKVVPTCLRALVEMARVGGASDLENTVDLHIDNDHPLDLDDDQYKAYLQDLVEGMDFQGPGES
GACGGACCGGGTCTCGGGACGTGCTAG: -0.33 z-score
GACGGACTGGACTCTGGGGACGTGCTA: -0.594 z-score
TTAGAACTGAGTATCGATTCGTGCTAG: 0.708 z-score
GACGAACTTAGTTTCGAGACGTGCTAG: 2.42 z-score
GACGGTTTCGGGACTGGGGACGTGCTA: 4.5 z-score

Series 2 — technique: aptamer microarray, sandwich; molecule type: DNA with 2'F-ANA; matrix: in vitro; tested at: 200 nM; together with: Cy3 exosite-II aptamer, 400 nM; direction: higher = stronger binding; endpoint: mean fluorescence intensity; strand: GGTTGGTGTGGTTGG
Target: Prothrombin, mature alpha-thrombin (F2, Homo sapiens, UniProt P00734)
Setting: whole 15-mer aptamer, many near background
2'F-ANA at 5 6 7 11 13: 640 a.u.
2'F-ANA at 2 3 5 7 9 11 15: 82.5 a.u.
2'F-ANA at 4 5 6 8: 82.3 a.u.
2'F-ANA at 1 2 3 5 7 8 13 15: 54.8 a.u.
2'F-ANA at 2 8 9 11 15: 406 a.u.
2'F-ANA at 1 2 4 6 9 10 13 14 15: 70.6 a.u.

Single results of other studies
UNK zinc fingers 1-6, SBP tag: RING finger protein unkempt homolog, zinc fingers 1-6, SBP tag (UNK, Homo sapiens, UniProt Q9C0B0, residues 30-357)
UniProt Q9C0B0, sequence (30-357, looked up): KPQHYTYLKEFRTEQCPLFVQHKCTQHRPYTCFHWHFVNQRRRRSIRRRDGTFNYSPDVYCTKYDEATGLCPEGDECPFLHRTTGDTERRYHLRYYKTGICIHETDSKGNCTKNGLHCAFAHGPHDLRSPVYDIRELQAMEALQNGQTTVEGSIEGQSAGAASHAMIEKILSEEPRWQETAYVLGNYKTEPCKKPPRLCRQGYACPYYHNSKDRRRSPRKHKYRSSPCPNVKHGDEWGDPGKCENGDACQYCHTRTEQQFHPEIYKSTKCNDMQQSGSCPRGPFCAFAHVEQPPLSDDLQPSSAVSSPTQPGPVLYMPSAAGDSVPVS
GGGAGUUCUACAGUCCGACGAUCGAAACUCCCCAUUGUCACUGAGAACCACCAAAUCUGACUUUUACAUUUGGUCUCAGAAUUCCGGUUCCUGCCCUGUUGGUUUUUUUUUUUUUUUUUUAAACAGUUUUCAAAAGUUCUUAACAACAGAGGAUUGAGCAUCA  bound/input enrichment (UNK zinc fingers 1-6, SBP tag; RNA Bind-n-Seq; RNA, in vitro; 100 nM, RNA with constant flanks, ends assumed; relative to: input RNA pool, higher = stronger binding): 1.62 ratio
PhoQ, residues 284 288 289 292 302 303 SCCLKL  fold induction (PhoP, residues 12 14 15 18 19 GQAIL (Escherichia coli, UniProt P23836); Sort-seq, refers to: YFP reporter; E. coli; PhoQ-PhoP variant library, together with: 10 µM Mg2+; relative to: high Mg2+ state, higher = stronger signaling): 9.06
GGGAGUUCUACAGUCCGACGAUCUGAAGAACAUUGUUGCUGACAAAGGAUUUUCUGGGUUAUUUACAGGUCUAAUUCCUCGAUCCGUUAAAAUUGUUCCUGCUUGUGCCAUUAUGAUCAGUUCAUAUGAAUUAGGAAAGUCGUCAACAGAGGAUUGAGCAUCA  bound/input enrichment (RING finger protein unkempt homolog, zinc fingers 1-6, GST-SBP tag (UNK, Homo sapiens, UniProt Q9C0B0, residues 30-357); RNA Bind-n-Seq; RNA, in vitro; not given, RNA with constant flanks, ends assumed; relative to: input RNA pool, higher = stronger binding): 0.236 ratio
GGGAGUUCUACAGUCCGACGAUCAGGGAUGGCCCCCAAUCCCACCUCUGUUUAUUCUGUAAACUACAACCUAUAAAUAACCUUUAGCAUUCCUAUUGUAACAAAAUUAAUUUUUAUGAAAUAAAUUAUAUUUCCUAGUCUAAUCAACAGAGGAUUGAGCAUCA  bound/input enrichment (UNK zinc fingers 1-6, SBP tag; RNA Bind-n-Seq; RNA, in vitro; 100 nM, RNA with constant flanks, vertebrate orthologous sites, ends assumed; relative to: input RNA pool, higher = stronger binding): 0.915 ratio
GGGAGUUCUACAGUCCGACGAUCUACAGGGAGAACUCACAAACUCAAAGGAAAGCUAUGAAAGAGUUUCUAAUAGAUAAAAGCUAGGAAAGAUUAGGACACUUUACAAAUGAGAAAUUAAAAAUAAAACAAAAGAAAAAGGAUCAACAGAGGAUUGAGCAUCA  bound/input enrichment (UNK zinc fingers 1-6, SBP tag; RNA Bind-n-Seq; RNA, in vitro; 100 nM, RNA with constant flanks, vertebrate orthologous sites, ends assumed; relative to: input RNA pool, higher = stronger binding): 0.738 ratio

Excerpt of the above (single results of other studies):
GGGAGUUCUACAGUCCGACGAUCGAAACUCCCCAUUGUCACUGAGAACCACCAAAUCUGACUUUUACAUUUGGUCUCAGAAUUCCGGUUCCUGCCCUGUUGGUUUUUUUUUUUUUUUUUUAAACAGUUUUCAAAAGUUCUUAACAACAGAGGAUUGAGCAUCA  bound/input enrichment (UNK zinc fingers 1-6, SBP tag; RNA Bind-n-Seq; RNA, in vitro; 100 nM, RNA with constant flanks, ends assumed; relative to: input RNA pool, higher = stronger binding): 1.62 ratio
PhoQ, residues 284 288 289 292 302 303 SCCLKL  fold induction (PhoP, residues 12 14 15 18 19 GQAIL (Escherichia coli, UniProt P23836); Sort-seq, refers to: YFP reporter; E. coli; PhoQ-PhoP variant library, together with: 10 µM Mg2+; relative to: high Mg2+ state, higher = stronger signaling): 9.06
